{"data": "Published values collected from several papers", "cell line": "HepG2", "note": "± gives the spread as reported."}
{"SMILES": "c1cc2nc(c1)-c1cccc(n1)CCCc1ccc(cc1)OCCCCCCOc1ccc(cc1)CCC2", "assay": "cell growth or viability, MTT", "conditions": "50 µM, 24 h", "viability [%]": 85.9}
{"SMILES": "COc1ccc2c(c1)c1c(n2CO)CN2CCc3cc(OCc4cccc(F)c4)c(OC)cc3C2C1 (stereo not shown)", "assay": "cell growth or viability", "conditions": "10 µM, 24 h", "viability [%]": 114}
{"SMILES": "COc1cc(Oc2c(O)cc(C)c(Br)c2OC)c(C(=O)O)c(C)c1O", "assay": "MTT", "conditions": "10 or 50 µM, 48 h", "viability [%]": "136 ± 19"}
{"SMILES": "CC[C@H](C)[C@@H](C(=O)N[C@@H](Cc1ccc(O)cc1)C(=O)N1CCC[C@H]1C(=O)N[C@@H](Cc1ccccc1)C(=O)O)n1cc(C(Cc2ccc(O)cc2)NC(=O)[C@@H](NC(=O)[C@H](CCCNC(=N)N)NC(=O)[C@@H](N)CC(=O)O)C(C)C)nn1 (stereo partly shown)", "assay": "cell growth or viability, MTT", "conditions": "12.5 µM, 24 h", "viability [%]": 94}
{"SMILES": "CC1CCN(C(=O)c2cccc(NC(=O)Nc3ccc([N+](=O)[O-])cc3)c2)CC1", "assay": "cell growth or viability, MTT", "conditions": "100 µM", "viability [%]": 75.7}
{"SMILES": "COc1ccc2c(c1)c1c(n2CO)CN2CCc3cc(OC)c(OCc4ccccc4)cc3C2C1 (stereo not shown)", "assay": "cell growth or viability", "conditions": "5 µM, 24 h", "viability [%]": 110}
{"SMILES": "COc1cc(Oc2c(OC)cc(C)c(Br)c2O)c(C(=O)O)c(C)c1O", "assay": "MTT", "conditions": "10 or 50 µM, 48 h", "viability [%]": "115 ± 34.7"}
{"SMILES": "COc1ccc(NC(=O)Nc2cccc(C(=O)N3CCC(C)CC3)c2)cc1", "assay": "cell growth or viability, MTT", "conditions": "100 µM", "viability [%]": 91.2}
{"SMILES": "COc1cc(Oc2c(O)cc(C)cc2OC)c(C(=O)O)c(C)c1O", "assay": "MTT", "conditions": "10 or 50 µM, 48 h", "viability [%]": "118 ± 31.6"}
{"SMILES": "COc1cc(NC(=O)Nc2cccc(C(=O)N3CCC(C)CC3)c2)cc(OC)c1", "assay": "cell growth or viability, MTT", "conditions": "100 µM", "viability [%]": 82.9}
